Assay results gathered from unrelated publications.
A part holds a random share of what one study measured. Changes are numbered by the printed parent chain.

Sample 1
Target: CCNA2, cyclin fold, Cln2 fusion (human)
Method: yeast growth competition, sequencing
Matrix: yeast
Notes: strong parent motif
Baseline: not given
Reading: higher = stronger binding
Starting sequence: CDAN1 docking peptide (human); RGARSQLFPPTEA
Variant	normalised enrichment score
RGARAQLFPPTEA [S5A]	4.2
AGARSQLFPPTEA [R1A]	1.28
RGARSQLFAPTEA [P9A]	1.15
RGAASQLFPPTEA [R4A]	0.559
RGARSQLFPPAEA [T11A]	1.95
RGARSQLFPPTAA [E12A]	2.14

Sample 2
Target: Sal-like protein 4, full length isoform A (SALL4, Homo sapiens, UniProt Q9UJQ4, residues 1-1053)
Sequence of UniProt Q9UJQ4 (whole entry, looked up): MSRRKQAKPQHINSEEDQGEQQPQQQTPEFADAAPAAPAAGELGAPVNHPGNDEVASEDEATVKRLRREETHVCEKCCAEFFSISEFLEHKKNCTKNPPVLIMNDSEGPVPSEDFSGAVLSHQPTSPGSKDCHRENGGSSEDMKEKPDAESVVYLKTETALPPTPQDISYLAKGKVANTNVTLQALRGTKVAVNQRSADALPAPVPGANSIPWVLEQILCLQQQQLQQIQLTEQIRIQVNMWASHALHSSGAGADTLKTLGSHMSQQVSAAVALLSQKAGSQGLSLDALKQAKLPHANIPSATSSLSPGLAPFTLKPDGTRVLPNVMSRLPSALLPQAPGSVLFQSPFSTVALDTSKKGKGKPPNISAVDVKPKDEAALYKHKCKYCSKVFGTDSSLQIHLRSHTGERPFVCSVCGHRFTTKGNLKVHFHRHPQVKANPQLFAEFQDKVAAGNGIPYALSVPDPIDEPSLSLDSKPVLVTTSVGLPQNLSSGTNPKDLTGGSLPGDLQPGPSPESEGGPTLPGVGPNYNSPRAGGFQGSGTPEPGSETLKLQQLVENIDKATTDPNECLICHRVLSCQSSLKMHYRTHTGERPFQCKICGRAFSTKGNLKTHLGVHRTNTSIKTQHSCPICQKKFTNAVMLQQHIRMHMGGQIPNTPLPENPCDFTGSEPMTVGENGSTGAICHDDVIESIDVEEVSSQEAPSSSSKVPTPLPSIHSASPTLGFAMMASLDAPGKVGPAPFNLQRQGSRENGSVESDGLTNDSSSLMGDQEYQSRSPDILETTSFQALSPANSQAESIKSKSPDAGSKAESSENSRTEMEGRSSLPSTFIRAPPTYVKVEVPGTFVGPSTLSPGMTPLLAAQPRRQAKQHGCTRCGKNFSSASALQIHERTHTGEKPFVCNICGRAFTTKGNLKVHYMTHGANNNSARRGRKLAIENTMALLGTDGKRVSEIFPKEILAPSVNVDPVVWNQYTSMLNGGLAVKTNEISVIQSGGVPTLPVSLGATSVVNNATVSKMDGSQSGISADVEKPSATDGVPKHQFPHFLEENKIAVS
Method: universal PBM
Form: double-stranded DNA, one strand shown
Matrix: in vitro
Tested at: 600 nM
Notes: 8-mer, flanks averaged, mean of replicates
Reading: higher = stronger binding
Sequence	E-score
ATCCCAGA	-0.123
GGGAGTCA	-0.195
CAGACGCA	-0.17
GCCAATTA	0.213
ACACACCC	-0.123
CTTTGTCA	0.069
CGTGATAA	0.194
TAAATTTA	0.36
CAGATTAC	0.138
ATGTTTAC	0.172
GCTCTAAA	-0.0777
GAGTCGCA	-0.117
GTTGCCAA	-0.0373
TAGATGAA	0.233
CAACTTGA	0.147
ACGCGGCA	-0.338
ATCCCCCG	-0.159
CACGATCC	-0.124
AGGGGGAA	-0.132
TACAGCAA	0.11
AATCTAAT	0.223
GGGTACAC	-0.171
TAATTTGA	0.311
GGTTACGA	0.0133
TGGATACA	0.0981

Sample 3
Target: RNA binding protein fox-1 homolog 2, RRM domain, GST-SBP tag (RBFOX2, Homo sapiens, UniProt O43251-10, residues 100-194)
Method: RNA Bind-n-Seq
Form: RNA
Matrix: in vitro
Tested at: 365 nM
Notes: natural RNA segment, single round, ends assumed
Baseline: no-protein control
Reading: higher = stronger binding
Target sequence (chain): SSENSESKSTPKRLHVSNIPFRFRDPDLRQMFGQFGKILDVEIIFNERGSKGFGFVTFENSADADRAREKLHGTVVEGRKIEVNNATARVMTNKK
Sequence	RBNS enrichment (R)
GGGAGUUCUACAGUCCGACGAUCACAGGGUUGAGUUGCAAAAGCCACAGCUCUUUGUUCUGUGUGCACUUUCUUGGAGAACCCCAUUGUGCACCCUGAGUUCUGCCUGUGCUUCGGCUGAUCCCAUAUUGGACUGGAAUUCUCGGGUGCCAA	0.354
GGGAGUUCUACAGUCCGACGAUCUCAUUAAUGUUAAAAGAGCAGCCACUGUUUUGUUGAAACAAACAGCUUAACUUCAGAAAUAAGAACUAGCACACUUAGACAAACAGGAGAGCAGGGGUUUGAAGCCAGCUUGGAAUUCUCGGGUGCCAA	0.426
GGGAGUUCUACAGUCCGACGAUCGCACUUGUACCUCCCUGGCAUACUGAGAAUUCCUGGGUCCAAUCAAAGGCCCUGACGGGCCCUGUCUUCAGGUUCUAGAAACUACCAGAAGAAGCUUCUUCCAUCUUAUCUGGAAUUCUCGGGUGCCAA	0.279
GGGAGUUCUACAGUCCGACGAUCGGAGGCUCAGAUGAGAUGCUAUAUGUGAAAACAUUCUGUAAGCUUCGUACAAAUGUGAAGUAUUAAUAUUAUCGCAGUAUUAUUGUUGUUAUUAUUAUUGUUAUUAUUAAUGGAAUUCUCGGGUGCCAA	0.677
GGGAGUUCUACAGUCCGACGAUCCACUUUGCGCUCAAUGGACUUUGUAAAUUCUCAUCAGCUGUUGUAGAAGUUCCUCUGCCUGGAGCUGUCAUCUCAGCCGCUCCCUUAGAAAGUGCCCUUCAACGGACCCUUGGAAUUCUCGGGUGCCAA	0.218
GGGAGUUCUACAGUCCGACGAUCAACCCUUUCAAGGAUAAAAAAACUUGCAUCAUCUUAUAGUGGAAUAGAGAAACAGCUCCUCGCCUCUUCCCAACAACGCAAAUUAUGAGCAGCUCCUUGAAGAGAUUUACUGGAAUUCUCGGGUGCCAA	0.399
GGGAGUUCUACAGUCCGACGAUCUGCUCUUCCAAUGCCCAAGGCAUGGCAUGGUGGCAGCUGUGCCCCCGCCCAUUGCUUUGGAGCACAGAUGACUCUGGGGGCAGAGGUGGGCUCUGUUUAGGAGGGCAGUGUGGAAUUCUCGGGUGCCAA	0.708
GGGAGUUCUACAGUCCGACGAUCUCAAUGUCACUUCCUUCUCUAGGAUCUCUCAGAUUCUAUCUCCCCAAGACAGGCAGGGAAAUUCUAAUUUCUCUCUUAAGAAAGUAAAUUUCCACUUCACCAGCAAUAACUGGAAUUCUCGGGUGCCAA	0.299
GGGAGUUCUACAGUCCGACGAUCCCAGUGAAACUGUGCAGGGAAAUGAAGGUAGAAUUUUGGGAGGUAAUAAUGAUGUGAAACAUAAAGAUUUAAUAAUUACUGUCCAACACAGUGGAGCAGCUUGUCCACAAUGGAAUUCUCGGGUGCCAA	2.59
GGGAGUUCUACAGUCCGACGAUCAUCUUCUGAGGUCAAUUAAAGGAGAAAAAAUACAAUUUCUCACUUUGCAUUUAGUCAAAAGAAAAAAUGCUUUAUAGCAAAAUGAAAGAGAACAUGAAAUGCUUCUUUCUUGGAAUUCUCGGGUGCCAA	0.263
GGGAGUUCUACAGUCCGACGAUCAGAAUGAAAUGAAUGAUUCUACAGCUAGGACUUAACCUUGAAAUGGAAAGUCAUGCAAUCCCAUUUGCAGGAUCUGUCUGUGCACAUGCCUCUGUAGAGAGCAGCAUUCCUGGAAUUCUCGGGUGCCAA	0.773
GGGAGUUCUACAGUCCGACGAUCGUUGUAACACUGAGGUAUCUCAUUUGCUCAUGUUAAUUUUUUUCUAAAUAAAUGGACAAAAAAUGAAGGUUCUGGUGAGUUAGCUGUUUUAUGGGUGUUAAGGACUGGUCUGGAAUUCUCGGGUGCCAA	0.477

Sample 4
Target: Ras GTPase-activating protein-binding protein 1, full length (G3BP1, Homo sapiens, UniProt Q13283)
Sequence of UniProt Q13283 (whole entry, looked up): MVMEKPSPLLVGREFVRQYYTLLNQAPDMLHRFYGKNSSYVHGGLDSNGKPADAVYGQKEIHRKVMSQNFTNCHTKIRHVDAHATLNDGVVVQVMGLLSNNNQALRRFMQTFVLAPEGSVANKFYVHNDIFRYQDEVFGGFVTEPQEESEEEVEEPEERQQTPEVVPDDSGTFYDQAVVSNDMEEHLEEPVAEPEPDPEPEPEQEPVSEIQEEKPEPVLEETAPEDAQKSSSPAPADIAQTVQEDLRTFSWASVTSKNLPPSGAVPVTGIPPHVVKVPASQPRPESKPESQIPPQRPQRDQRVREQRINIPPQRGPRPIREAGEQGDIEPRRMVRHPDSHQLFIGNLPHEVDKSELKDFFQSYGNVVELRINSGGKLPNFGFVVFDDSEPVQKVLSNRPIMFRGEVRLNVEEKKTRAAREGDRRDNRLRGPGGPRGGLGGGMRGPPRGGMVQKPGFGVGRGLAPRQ
Method: RNA Bind-n-Seq
Form: RNA
Matrix: in vitro
Tested at: 200 nM
Notes: whole 134-nt RNA, ends assumed
With: 150 mM LiCl
Baseline: input library
Reading: higher = stronger binding
All molecules: 7-deaza-guanosine replaces G
Sequence	log2 enrichment
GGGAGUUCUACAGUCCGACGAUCCACAGACAACACGCACCCACACAGACACAGAGGGAAGCGGUUGGGAUGGGGACAGGGUGCACAGCAGGGCGGGGUAGGACCCCAGCCCCUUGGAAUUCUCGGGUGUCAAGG	-1.52
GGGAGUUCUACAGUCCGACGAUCACCAUGCAGGUGGGCAUCUUUGGGAAGUGGGGCAAGGGGGGGAUAGGGAGGGGGGUAAAAAUUUGGGAACAGGUGGUCCCAGGUCGUUUCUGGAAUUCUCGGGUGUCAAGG	0.115
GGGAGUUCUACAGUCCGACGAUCGUCCUGUGCUACACAUCGUAUGUACCGAAUCGGAAAAAGGGGAAAAAGGGGAAAAAGGAAAGUAUUAUGUUACGCCGUUCGGAUCUGCACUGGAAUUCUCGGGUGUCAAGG	-0.155
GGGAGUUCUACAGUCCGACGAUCAAGUCCUGUGCUACACAUCGUAUGUACCGAAUCGGGGUUUUGGGGUUUUGGUUUUGGAAAGUAUUAUGUUACGCCGUUCGGAUCUGCACUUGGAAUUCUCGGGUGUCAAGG	-0.611
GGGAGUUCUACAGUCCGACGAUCGUCCUGUGCUACACAUCGUAUGUACCGAAUCGGGUUUUUGGGGUUUUUGGUUUUUGGGGAAAGUAUUAUGUUACGCCGUUCGGAUCUGCAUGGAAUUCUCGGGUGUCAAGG	-1.03
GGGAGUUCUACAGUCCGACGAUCGUCCUGUGCUACACAUCGUAUGUACCGAAUCGGGUUUUUUUGGGAAAGGGUUUUUGGGAAAGUAUUAUGUUACGCCGUUCGGAUCUGCACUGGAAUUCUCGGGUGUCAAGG	-2.07
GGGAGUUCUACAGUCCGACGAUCCCUGUGCUACACAUCGUAUGUACCGAAUCGGGUUUUUUGGUUUUUUGGGGUUUUUUGGGGAAAGUAUUAUGUUACGCCGUUCGGAUCUGCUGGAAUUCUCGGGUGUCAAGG	-0.346
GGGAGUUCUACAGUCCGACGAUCUCAAGUCCUGUGCUACACAUCGUAUGUACCGAAUCGGUUUUUGGAGGUUUUUGGAAAGUAUUAUGUUACGCCGUUCGGAUCUGCACUUCCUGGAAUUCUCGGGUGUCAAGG	-0.0377
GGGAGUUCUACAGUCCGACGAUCCCUCAAGUCCUGUGCUACACAUCGUAUGUACCGAAUCGGGCGGGGCGGGCGGAAAGUAUUAUGUUACGCCGUUCGGAUCUGCACUUCCAGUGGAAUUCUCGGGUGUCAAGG	-0.0101
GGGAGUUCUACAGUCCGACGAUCUCCUGUGCUACACAUCGUAUGUACCGAAUCGGCCCCCCGGCCCCCCGGGGCCCCCCGGGGAAAGUAUUAUGUUACGCCGUUCGGAUCUGCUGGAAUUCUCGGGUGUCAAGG	-0.101
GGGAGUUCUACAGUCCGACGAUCACCAUGCAGGUGGGCAUCUUUGGGAAGUGGGGCAAGGGGGGGAUAGGGAGGGGGGUAACACUUUGGGGACAGGUGGUCCCAGGUCGUUUCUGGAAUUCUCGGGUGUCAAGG	0.0811

Sample 5
Target: Histone acetyltransferase KAT6A, winged helix 2, GST fusion (KAT6A, Homo sapiens, UniProt Q92794, residues 85-181)
Method: protein binding microarray
Form: double-stranded DNA, one strand shown
Matrix: in vitro
Tested at: not given
Notes: 8-mer, flanks averaged, mean of 2 arrays, mostly near background
Baseline: not given
Reading: higher = stronger binding
Construct (chain): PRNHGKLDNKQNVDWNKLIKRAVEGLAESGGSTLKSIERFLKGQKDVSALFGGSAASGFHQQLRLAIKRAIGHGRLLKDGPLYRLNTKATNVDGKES
Sequence	E-score
CCTGGTTC	-0.0421
AAACTAGA	0.0135
GGGAATGA	-0.0543
GTTTGCAA	0.109
ACAAGGGT	-0.116
CACCCCCC	-0.093
GGTACAAA	-0.106
GCAATGGA	-0.111
ACTGCCAC	0.0735
GTTACGAA	-0.00724
GAAAGCCC	0.0262
CAAGAGCG	0.0257
CGGTGAAA	0.0774
CAGACAAG	-0.0193
ACGTCCAA	-0.218
AGATCCCT	-0.259
ATATCTGG	-0.124
TTCAGGAA	-0.0941
ATAGAGAA	-0.0209
AAGGCCGA	0.1
GCAGAGAC	-0.0719
AGAAAAGG	0.0544
CAACTAAG	0.0447
GCTGCGCA	0.213

Some of these lines once more (sample 2):
Sequence	E-score
CACGATCC	-0.124
CAGACGCA	-0.17
TGGATACA	0.0981
CTTTGTCA	0.069
GGGAGTCA	-0.195
ACGCGGCA	-0.338
GAGTCGCA	-0.117
ATGTTTAC	0.172
